{"data": "Published values collected from several papers", "note": "Each line is one published result; not all experiments were run side by side. Values joined by “and” are separate records of one study, mostly repeats; a detail may differ. Numbers after ± are the reported error."}
{"SMILES": "CC(F)(F)c1cc(F)ccc1-c1sc2cc(O)ccc2c1Oc1ccc(/C=C/C(=O)O)cc1", "system": "human, serum", "conditions": "oral, 450 mg once daily, cycle 1 day 28, fasted, median", "Tmax": "2 h"}
{"SMILES": "Cc1cn(C(=O)c2c(-c3c(Cl)cc(Cl)cc3Cl)noc2C(C)(C)F)c2cccc(/C=C/C(=O)O)c12", "system": "human patients", "conditions": "700 mg bid, cycle 1 day 1", "Tmax": "4 h"}
{"SMILES": "CC(C)NC(=O)COc1cccc(-c2nc(Nc3ccc4[nH]ncc4c3)c3ccccc3n2)c1", "system": "human male, plasma", "conditions": "oral, 200 mg, day 3, fed, alone, median", "Tmax": "2 h"}
{"SMILES": "CCCS(=O)(=O)N[C@H]1C[C@@H](N(C)c2ncnc3[nH]ccc23)C1", "system": "human, plasma", "conditions": "oral, 200 mg once daily, 4 days, steady state", "Tmax": "1.5 h"}
{"SMILES": "O=C(NCCN1CCCC1)c1cc(-c2ccc(CN3CCOCC3)cc2)nc2ccc(F)cc12", "system": "human, whole blood", "conditions": "oral, 1000 mg", "Tmax": "1.5 h"}
{"SMILES": "NC[C@@]1(CC(=O)O)[C@@H]2CC[C@H]3C[C@@H]2[C@@H]1C3", "system": "human, normal renal function, plasma", "conditions": "oral, 20 mg single dose, median", "Tmax": "1 h"}
{"SMILES": "COCCOc1cnc2ccn([C@H](C)c3nnc4c(F)cc(-c5cnn(C)c5)cn34)c(=O)c2c1", "system": "human patients, plasma", "conditions": "300 mg once daily, day 1", "Tmax": "2.9 h"}
{"SMILES": "COc1ncc(-c2nc3c(n2C(C)C)[C@H](c2ccc(Cl)cc2)N(c2cc(Cl)cn(C)c2=O)C3=O)c(OC)n1", "test": "LC-MS/MS, noncompartmental", "system": "human, plasma", "conditions": "oral, 2 mg, C1D1, low-dose, median", "Tmax": "3.4 h"}
{"SMILES": "CCN(CC)Cc1cc(Nc2ccnc3cc(Cl)ccc23)ccc1O", "system": "human, both sexes, plasma", "conditions": "oral, dose not given, non-fixed combination", "Tmax": "1.55 h"}
{"SMILES": "CC(=O)O.NC(=O)c1cnc(N[C@@H]2CCCC[C@@H]2N)nc1Nc1cccc(-n2nccn2)c1", "system": "human, plasma", "conditions": "oral, 66 mg once daily", "Tmax": "2.53 h"}
{"SMILES": "Cc1noc(C)c1-c1cc(C(O)(c2ccccn2)c2ccccn2)c2nc(C3CC3)[nH]c2c1", "system": "human patients, plasma", "conditions": "oral, 2 mg, cycle 1 day 8, monotherapy", "Tmax": "0.5 h"}
{"SMILES": "C[C@H](Oc1ccc(Br)cc1-c1ccon1)C(=O)O", "test": "LC-MS/MS, non-compartmental", "system": "human, plasma", "conditions": "600 mg once daily, day 1, multiple ascending dose, median", "Tmax": "3 h"}
{"SMILES": "NC(CO)(CO)CCc1ccc(Sc2cccc(OCc3ccccc3)c2)cc1Cl", "system": "human male fasted, whole blood", "conditions": "oral, 3 mg, given alone", "Tmax": "12 h"}
{"SMILES": "COc1ccc([C@@H](O)c2cc(-c3ncnc4cc(N5CCOCC5)ccc34)c(F)cc2Cl)nn1", "system": "human, plasma", "conditions": "oral, 150 mg once daily, single dose, median", "Tmax": "0.93 h"}
{"SMILES": "N#Cc1cccc(-c2ccc3ncc(-c4cc(F)cc(F)c4)c(N4CCC(N)CC4)c3c2)c1O", "system": "male human, plasma", "conditions": "intravenous, 50 µg, median, first sampling point", "Tmax": "0.0333 h"}
{"SMILES": "O=C(c1cc(Cc2n[nH]c(=O)c3ccccc23)ccc1F)N1CCN(C(=O)C2CC2)CC1", "system": "human, plasma", "conditions": "oral, 25 mg twice daily, cycle 1 day 1, dose level -1", "Tmax": "2 h"}
{"SMILES": "Cn1ncnc1[C@H]1c2n[nH]c(=O)c3cc(F)cc(c23)N[C@@H]1c1ccc(F)cc1", "system": "human patients, plasma", "conditions": "oral, 600 µg/m2 twice daily, day 1, monotherapy, dose level DL3, median", "Tmax": "1 h"}
{"SMILES": "C#Cc1cccc(Nc2ncnc3cc(OCCOC)c(OCCOC)cc23)c1", "system": "human", "conditions": "oral, 100 mg daily", "Tmax": "3 to 4 h"}
{"SMILES": "Cn1cncc1[C@@](N)(c1ccc(Cl)cc1)c1ccc2c(c1)c(-c1cccc(Cl)c1)cc(=O)n2C", "system": "human, plasma", "conditions": "oral, 300 mg/m^2, median, first dose", "Tmax": "3 h"}
{"SMILES": "Cn1c(=O)oc2ccc(-c3ccc(C[C@@H](C#N)NC(=O)[C@@H]4CNCCCO4)cc3)cc21", "system": "human, plasma", "conditions": "oral, 25 mg single", "Tmax": "≤ 3 h"}
{"SMILES": "Cn1cc(-c2ccc(S(=O)(=O)[C@@H]3C[C@@H](C(=O)NC4(C#N)CC4)N(C(=O)C4(C(F)(F)F)CC4)C3)c(C(F)(F)F)c2)cn1", "test": "noncompartmental analysis", "system": "human, plasma", "conditions": "oral, 50 mg, day 1, with food, median", "Tmax": "5 h"}
{"SMILES": "C#C[C@]1(COP(=O)(O)O)O[C@@H](n2cnc3c(N)nc(F)nc32)C[C@@H]1O", "test": "item: islatravir triphosphate", "system": "human, PBMC", "conditions": "oral, 400 mg single dose", "Tmax": "6 h"}
{"SMILES": "O=C(O)c1cc(/N=N/c2ccc(S(=O)(=O)Nc3ccccn3)cc2)ccc1O", "test": "LC-MS", "system": "human, plasma", "conditions": "oral, 1000 mg, day 1", "Tmax": "4 h"}
{"SMILES": "CCOc1c([C@H](C)n2nc(C)c3c(N)ncnc32)cc(Cl)c(F)c1[C@@H]1CNC(=O)C1", "system": "human patients, plasma", "conditions": "oral, 15 mg once daily, cycle 1 day 15, monotherapy, median", "Tmax": "1 h"}
{"SMILES": "CC(C)[C@H](N)C(=O)NCCCS(=O)(=O)O", "test": "median", "system": "human, plasma", "conditions": "oral, 256.5 mg once daily, day 1, fed, capsule", "Tmax": "1 h"}
{"SMILES": "Cc1ncnc2c1ccn2[C@@H]1C[C@H](Oc2cc(C(F)F)c(F)c3c2CNCC3)[C@@H](O)[C@H]1O", "system": "human, plasma", "conditions": "8 mg once daily", "Tmax": "2 h and 1 h"}
{"SMILES": "N#Cc1ccc(C(c2ccc(C#N)cc2)n2cncn2)cc1", "system": "human", "conditions": "125 mg", "Tmax": "2 h"}
{"SMILES": "CC(C)n1c(Nc2cccnc2)nc2cnc(Nc3ccc(N4CCN(C)CC4)cc3)nc21", "test": "LC-MS/MS", "system": "human, male, plasma", "conditions": "oral, 100 mg, day 11, median, together with: itraconazole 200 mg", "Tmax": "1 h"}
{"SMILES": "COc1nnc2ccc(N3CCC(c4ccc(OCCN5CCN(C)C(=O)[C@H]5C)cc4)CC3)nn12", "system": "human, plasma", "conditions": "oral, 5 mg once daily, single dose, monotherapy", "Tmax": "1.12 h"}
{"SMILES": "Cc1cc(-c2nnc(N)nc2-c2ccc(F)cc2)cc(Cl)n1", "system": "human patients, plasma", "conditions": "oral, 100 mg nanosuspension once daily, multiple doses, median", "Tmax": "1 h"}
{"SMILES": "C[C@@H](Nc1cc(F)cc(F)c1)c1cc(C(=O)N(C)C)cc2c(=O)cc(N3CCOCC3)oc12", "test": "item: M1 metabolite", "system": "human", "conditions": "oral, 120 mg, single dose day 1, continuous BID regimen", "Tmax": "2.25 h"}
{"SMILES": "Cc1nc(-c2ccc(OCC(C)C)c(C#N)c2)sc1C(=O)O", "system": "human, plasma", "conditions": "oral, 20 mg once daily, together with: verinurad 5 mg", "Tmax": "2.5 h"}
{"SMILES": "CN(CC#N)C(=O)C[C@H](Nc1nc2ccccc2[nH]1)c1cccc(C(F)(F)F)c1", "system": "human", "conditions": "intravenous infusion, 6 mg/kg, 1 mg/mL formulation", "Tmax": "0.43 ± 0.09 h"}
{"SMILES": "CCCCCCCOc1ccc(CCC(N)(CO)CO)cc1C(F)(F)F.Cl", "system": "healthy human males, plasma", "conditions": "oral, 0.125 mg, day 1, median", "Tmax": "16 h"}
{"SMILES": "CCn1cc(C(=O)N2CCOCC2)c(=O)c2cc(NC3Cc4ccccc4C3)cnc21", "system": "human, fasted", "conditions": "oral tablet, 300 mg single dose, median", "Tmax": "1.75 h"}
{"SMILES": "N#Cc1cc(NC(=O)[C@H]2c3ccccc3C(=O)N(CC(F)(F)F)[C@@H]2c2cccnc2)ccc1F", "system": "human, plasma", "conditions": "oral, 1200 mg, median", "Tmax": "1.6 h"}
{"SMILES": "C#C[C@]1(COP(=O)(O)OP(=O)(O)O)O[C@@H](n2cnc3c(N)nc(F)nc32)C[C@@H]1O", "test": "item: islatravir triphosphate", "system": "human, PBMC", "conditions": "oral, 400 mg single dose", "Tmax": "6 h"}
{"SMILES": "Cc1cc(-c2nccc3c2ccn3CC(=O)Nc2ccc(-c3cnccn3)cn2)ccn1", "system": "human, plasma", "conditions": "oral, 5 mg once daily, day 1, median", "Tmax": "1.25 h"}
{"SMILES": "Cn1nnc2c(C(N)=O)ncn2c1=O", "system": "human patients, plasma", "conditions": "oral, 20 mg/m2, day 5, dose level DL3, median, together with: talazoparib 600 µg/m2", "Tmax": "1 h"}
{"SMILES": "NC(=O)c1[nH]cnc1N", "system": "human patients, plasma", "conditions": "IV infusion over 1 h, 1000 mg/m^2 DTIC, cycle 2 day 1, staggered with co-drug", "Tmax": "1.95 h"}
{"SMILES": "CC1(COc2ccc3c(c2)ncn3-c2ccc3cccc(N4CCC(N)CC4)c3n2)COC1", "system": "human patients, recurrent/progressive HGG or DIPG, serum", "conditions": "oral, 170 mg/m^2, day 28, median", "Tmax": "4 h"}
{"SMILES": "CC(C)(C(=O)NC1C2CC3CC1CC(C(N)=O)(C3)C2)N1CCN(c2ccc(C(F)(F)F)cn2)CC1 (centres unmarked)", "system": "human, plasma", "conditions": "10 mg once daily, 5 days, median", "Tmax": "1.6 h"}
{"SMILES": "CN(C)C(=O)c1cc2cnc(Nc3ccc(N4CCNCC4)cn3)nc2n1C1CCCC1", "system": "human, moderate renal impairment, plasma", "conditions": "oral, 400 mg, median", "Tmax": "2.48 h"}
{"SMILES": "O=C(NC[C@H](O)CO)c1ccncc1Nc1ccc(I)cc1F", "system": "human", "Tmax": "1 to 2.3 h"}
{"SMILES": "COc1cc([C@H]2Oc3ccc([C@H]4Oc5cc(O)cc(O)c5C(=O)[C@@H]4O)cc3O[C@@H]2CO)ccc1O", "system": "OATP1B1/1B3 humanized mice, plasma", "conditions": "oral gavage, 500 mg/kg silymarin, median", "Tmax": "0.25 h"}
{"SMILES": "COc1cc(C(=O)NC2CCN(C)CC2)c(F)cc1Nc1ncc(C(F)(F)F)c(Oc2cccc3c2C(=O)N(C)C3)n1", "system": "human patients, plasma", "conditions": "oral, 200 mg single dose, cycle 1 day 1, median", "Tmax": "2.98 h"}
{"SMILES": "CC(C)n1nc(-c2ccc3oc(N)nc3c2)c2c(N)ncnc21", "system": "human patients, plasma", "conditions": "oral, 20 mg once weekly, cycle 1 day 1, dose escalation", "Tmax": "0.47 h"}
{"SMILES": "CC(C)(C)OC[C@@H]1C(=O)NCCN1C(=O)C[C@H](N)Cc1cc(F)c(F)cc1F", "system": "human, male, plasma", "conditions": "oral, steady state, DP treatment", "Tmax": "2 h"}
{"SMILES": "CN(C)CCCNC(=O)/C(=C/CCCCC(=O)NO)COc1cccc2ccccc12", "system": "human", "conditions": "iv, 187.5 mg/m2, day 1, single dose, mean", "Tmax": "0.08 h"}
{"SMILES": "O=C1CC[C@H](N2Cc3cc(N4CCN(CC5CCN(c6ccc([C@@H]7c8ccc(O)cc8CC[C@@H]7c7ccccc7)cc6)CC5)CC4)ccc3C2=O)C(=O)N1", "system": "human, plasma", "conditions": "oral, 200 mg, together with: rosuvastatin 10 mg", "Tmax": "7.5 h"}
{"SMILES": "CN(C(=O)C(C)(C)c1cc(C(F)(F)F)cc(C(F)(F)F)c1)c1cnc(N2C[C@H]3COCCN3C[C@H]2CO)cc1-c1ccc(F)cc1[14CH3]", "test": "LC-MS/MS", "system": "human, plasma", "conditions": "oral, 120 mg", "Tmax": "1.5 h"}
{"SMILES": "Cc1cc(C)c(CNC(=O)c2cc(Cl)c3c(c2C)O[C@@](C)([C@H]2CC[C@H](N(C)C)CC2)O3)c(=O)[nH]1", "test": "median", "system": "healthy male humans, plasma", "conditions": "oral, 25 mg, day 12, together with: fluconazole", "Tmax": "4 h"}
{"SMILES": "CN(C)C(=O)c1cc2cnc(Nc3ccc(N4CCNCC4)cn3)nc2n1C1CCCC1", "system": "human, expansion cohort, plasma", "conditions": "oral, 800 mg, day 14, together with: gemcitabine 1000 mg/m^2", "Tmax": "5.1 ± 1.2 h"}
{"note": "Excerpt of the above:"}
{"SMILES": "CC(C)n1c(Nc2cccnc2)nc2cnc(Nc3ccc(N4CCN(C)CC4)cc3)nc21", "test": "LC-MS/MS", "system": "human, male, plasma", "conditions": "oral, 100 mg, day 11, median, together with: itraconazole 200 mg", "Tmax": "1 h"}
{"SMILES": "COc1nnc2ccc(N3CCC(c4ccc(OCCN5CCN(C)C(=O)[C@H]5C)cc4)CC3)nn12", "system": "human, plasma", "conditions": "oral, 5 mg once daily, single dose, monotherapy", "Tmax": "1.12 h"}
{"SMILES": "Cc1cc(-c2nnc(N)nc2-c2ccc(F)cc2)cc(Cl)n1", "system": "human patients, plasma", "conditions": "oral, 100 mg nanosuspension once daily, multiple doses, median", "Tmax": "1 h"}
{"SMILES": "C[C@@H](Nc1cc(F)cc(F)c1)c1cc(C(=O)N(C)C)cc2c(=O)cc(N3CCOCC3)oc12", "test": "item: M1 metabolite", "system": "human", "conditions": "oral, 120 mg, single dose day 1, continuous BID regimen", "Tmax": "2.25 h"}
